Assay results collected from several papers.
Every numbered part comes from another study and shows a few of its results, in no order.
UniProt Q16816, sequence (whole entry, looked up): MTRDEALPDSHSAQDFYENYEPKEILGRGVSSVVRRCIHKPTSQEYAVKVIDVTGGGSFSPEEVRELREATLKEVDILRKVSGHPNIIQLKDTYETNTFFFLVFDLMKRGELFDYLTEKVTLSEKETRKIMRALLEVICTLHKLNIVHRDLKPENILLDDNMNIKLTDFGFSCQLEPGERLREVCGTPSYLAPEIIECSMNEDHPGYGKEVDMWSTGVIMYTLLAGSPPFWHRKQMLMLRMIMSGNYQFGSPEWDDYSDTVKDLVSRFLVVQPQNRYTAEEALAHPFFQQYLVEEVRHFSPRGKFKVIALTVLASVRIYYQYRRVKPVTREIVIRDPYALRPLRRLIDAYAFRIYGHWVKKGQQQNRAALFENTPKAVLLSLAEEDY

Set 1 — method: protein-binding microarray; molecule type: double-stranded DNA, one strand shown; medium: in vitro; tested at: 250 nM; setting: 60-bp whole probe; with: salmon DNA 0.4 mg/ml; baseline: random background probes; reading: higher = stronger binding; constant ends, left off below: GCCTAGCAC … GTCTTGATTCGCTTGACGCTGCTG
Target: Interferon regulatory factor 7, full length, phosphomimetic (IRF7, Homo sapiens, UniProt Q92985, residues 1-503, S101K/S471D/S472D/S475D/S476D/S477D/S483D/S484D/S487D)
Residues (chain): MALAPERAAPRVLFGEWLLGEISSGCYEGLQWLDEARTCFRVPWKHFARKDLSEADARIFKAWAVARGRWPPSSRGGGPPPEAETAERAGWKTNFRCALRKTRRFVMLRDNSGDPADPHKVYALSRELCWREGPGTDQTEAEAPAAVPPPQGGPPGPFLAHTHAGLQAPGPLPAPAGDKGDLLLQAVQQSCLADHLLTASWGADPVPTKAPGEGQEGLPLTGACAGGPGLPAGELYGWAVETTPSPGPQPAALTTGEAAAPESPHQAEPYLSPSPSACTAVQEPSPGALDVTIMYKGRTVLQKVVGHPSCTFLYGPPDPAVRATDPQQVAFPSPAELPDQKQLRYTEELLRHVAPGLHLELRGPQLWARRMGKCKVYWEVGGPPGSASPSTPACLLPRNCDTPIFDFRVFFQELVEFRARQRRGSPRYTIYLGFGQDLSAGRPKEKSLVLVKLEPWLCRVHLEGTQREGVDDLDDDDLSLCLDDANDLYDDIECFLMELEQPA
Oligonucleotide | log fluorescence [z-score]
TCAATAATTTTTTTCTAACTGTGCTAG | 0.38
TTAGGACTGGCACTGGGTTAGTGCTAG | -0.472
TTAGGTTTCCGTTTCCTTTAGTGCTAG | 9.38
TAAGGACTGGACTATCGGTTAGTGCTA | 0.013
TTAGGTCTCGTTATCCTTTAGTGCTAG | 3.73
ATATGTAAGATATCCATATGGTGCTAG | 0.128
TCTAATTTACTTTGGTTGGCGTGCTAG | 0.215
CTCTGTCCCTGTTTCTACTGGTGCTAG | 2.04

Set 2 — method: RNAcompete; molecule type: RNA; medium: in vitro; tested at: 20 nM; setting: 7-mer, probes averaged, single round; baseline: mean of 7-mers; reading: higher = stronger binding
Target: PABPC1L2, full length, GST fusion (mouse, UniProt A0ABA7IW68)
Residues (chain): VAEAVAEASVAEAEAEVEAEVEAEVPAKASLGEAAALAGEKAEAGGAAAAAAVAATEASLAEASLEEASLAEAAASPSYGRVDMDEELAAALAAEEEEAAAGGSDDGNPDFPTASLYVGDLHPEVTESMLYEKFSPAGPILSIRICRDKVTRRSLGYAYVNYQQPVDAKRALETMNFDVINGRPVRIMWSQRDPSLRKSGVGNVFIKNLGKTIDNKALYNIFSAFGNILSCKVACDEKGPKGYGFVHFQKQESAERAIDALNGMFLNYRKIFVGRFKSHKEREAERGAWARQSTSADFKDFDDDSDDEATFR
Oligonucleotide | 7-mer Z-score
ACUCCUG | -0.246
CCUAGUA | -0.226
GCUAAAC | 0.367
ACGAGAG | 0.187
ACUCCGG | -0.0935
UACCGUG | -0.0772
CAGUCGA | 0.0189
GGGGGAU | 0.432

Set 3 — method: RNA Bind-n-Seq; molecule type: RNA; medium: in vitro; tested at: 20 nM; setting: 6-mer, flanks averaged, single round; with: 150 mM LiCl; baseline: input library; reading: higher = stronger binding
Target: TAR DNA-binding protein 43, full length, His tag (TARDBP, Homo sapiens, UniProt Q13148, residues 1-414)
Oligonucleotide | 6-mer enrichment (R)
UGUAGG | 1.18
GGGACG | 1.15
GGUUUC | 0.971
UAGCCG | 0.89

Mixed results
SMILES | target | read-out | mode | tested at | baseline | measurement | value
CN(C)S(=O)(=O)c1ccc2c(c1)/C(=C/c1cc3c([nH]1)CCCC3)C(=O)N2 | Phosphorylase b kinase gamma catalytic chain, skeletal muscle/heart isoform (PHKG1, Homo sapiens, UniProt Q16816) | enzyme activity | inhibitor | 0.5 µM | control | remaining activity | 72.4%

Some of these lines once more (set 3):
Oligonucleotide | 6-mer enrichment (R)
GGGACG | 1.15
GGUUUC | 0.971
UAGCCG | 0.89
